# Experimental data pooled from the literature.
# Protocols differ between the studies behind these lines. ± marks the error that the study gave.
SMILES,assay,system,conditions,scale,quantity,result
COc1c2c(cc3oc(CO)cc(=O)c13)O[C@H](C(C)(C)O)C2,analgesia,mouse,"oral, 1 mg/kg, 0.5 h",,hot plate latency,11.4 ± 1.48 s
CCCCCCOC(=O)Cc1c(C)n(C(=O)c2ccc(Cl)cc2)c2ccc(OC)cc12,hot plate test,BALB/c mice,"50 mg/kg, 30 min",,latency of nociceptive response,13.7 ± 1.37 s
CN1CCN(c2ccc(Nc3ncc(Cl)c(Nc4ccccc4P(C)(C)=O)n3)cc2Br)CC1,immunohistochemistry,"nude mice, PC9-OR xenograft, tumour",30 mg/kg,reference: vehicle,Ki67 level,decreased
CCCCCCCCCn1cc(C(N)(CO)CO)nn1,,"APP/PS1 mouse, cortex, hippocampus",dose not given,,activated microglia and astrocytes,decreased
CCN(C(=O)c1cc(F)ccc1Oc1nncnc1N1CCC2(C1)CN([C@H](CCCN(C)CCOC)C(C)C)C2)C(C)C,,"mouse, sample A AML PDX",all dose levels,reference: vehicle,increase in lifespan,> 169%
COC(=O)C=CCCC(NC(=O)c1ccncc1C(=O)O)C(=O)NC(C(=O)N1CC(=O)CC1C(=O)NC(C(=O)NC(C(N)=O)C1CCCCC1)C1CCCCC1)C(C)(C)C (stereo not drawn),,New Zealand White rabbit,"dose not given, 35 to 135 min, venous stasis reperfusion, unit not given",reference: baseline,AUC of jugular flow,662
CCc1nnc(NS(=O)(=O)c2ccc(NC(=S)NC(=O)/C=C/c3ccc(F)cc3)cc2)s1,,"SK-N-AS xenograft, athymic nude mice","intraperitoneal, 10 and 20 mg/kg daily, 18 days",reference: control,tumour weight,35 to 40%
CC(=O)[O-].Nc1ccc(C([O-])=NN=Cc2ccc(OCC(=O)Nc3ccc(Cl)cc3)cc2)cc1.O.O.O.[Co+2],"ABTS radical scavenging, ABTS",,"concentration not given, 6 min",,inhibition,54.3%
CNc1oc(-c2cccc3ccccc23)nc1C#N,,"NOD mice, prediabetic","ip, 24 mg/kg daily, 2 weeks",,beta-cell mass,no effect
CCOC(=O)C1NC(c2ccc[n+](C)c2)C23c4c5c6c7c8c9c(c%10c%11c2c2c4c4c%12c5c5c6c6c8c8c%13c9c9c%10c%10c%11c%11c2c2c4c4c%12c%12c5c5c6c8c6c8c%13c9c9c%10c%10c%11c2c2c4c4c%12c5c6c5c8c9c%10c2c45)C713 (stereo not drawn),,"mouse, BCBL1 PEL xenograft","intraperitoneal, 20 mg/kg, day 21",,spleen weight,~0.15 g
C=C1C[C@@]23CC[C@H]4[C@@](C)(CCC[C@@]4(C)C(=O)O[C@@H]4O[C@H](CO)[C@@H](O)[C@H](O)[C@H]4O)[C@@H]2CC[C@]1(O[C@@H]1O[C@H](CO[C@H]2O[C@H](CO)[C@@H](O)[C@H](O)[C@H]2O)[C@@H](O)[C@H](O)[C@H]1O[C@@H]1O[C@H](CO)[C@@H](O)[C@H](O)[C@H]1O)C3,"immunoblot, measured: phospho-perilipin","C57BL/6N mouse, high-fat diet, gonadal white adipose tissue","drinking water, 0.2 g/L, 16 weeks",reference: vehicle,protein level,decreased
C[C@H](NC(=O)COC(=O)[C@H](C)NC(=O)CO)C(=O)O,,water,"pH 5, 50 °C",,depolymerization rate constant,0.238 h⁻¹
C=C(c1ncc(C(=O)O)cn1)c1cc2c(cc1C)C(C)(C)CCC2(C)C,"RNA sequencing, measured: Abca1 mRNA","rat, brain","dose not given, 24 h, single dose",reference: vehicle,log2 fold change,-2.06
COc1ccc(C2CC(c3ccc(C)cc3)=Nc3ccccc3S2)cc1 (stereo not drawn),,"rat, normal, overnight fasted","oral, 10 mg/kg, 60 min, oral glucose tolerance test, with: glucose 3 g/kg oral",,blood glucose,120 ± 4.97 mg/dL
CC[C@H]1[C@@H](O)[C@@H]2[C@H](CC[C@]3(C)[C@@H]([C@H](C)CCOS(=O)(=O)[O-])CC[C@@H]23)[C@@]2(C)CC[C@@H](O)C[C@@H]12.[Na+],EchoMRI,ob/ob NASH mouse model,"oral, 10 mg/kg once daily, 8 weeks",reference: body weight,whole-body fat mass,37.5 ± 0.7%
O=C([O-])CN1CCN(CC(=O)[O-])CCN(CC(=O)NC[C@H]2CC[C@H](C(=O)N[C@H](Cc3cnc4ccccc4c3)C(=O)NCCCC[C@H](NC(=O)N[C@@H](CCC(=O)O)C(=O)O)C(=O)O)CC2)CCN(CC(=O)[O-])CC1.[64Cu+2],,"prostate cancer patients, biopsy cores","dose not given, above 66 CPM cut-off",,false-positive cores,10.9%
N[C@@H](CCC(=O)N[C@@H](CS[Se]Cc1ccc(-c2cc(C(F)(F)F)nn2-c2ccc(S(N)(=O)=O)cc2)cc1)C(=O)NCC(=O)O)C(=O)O,,"nude mouse, 1205 Lu xenograft","i.p., 0.127 µmol alternate days, 4 weeks",reference: vehicle,decrease in tumour volume,≤ 70%
CC(C)[C@H](N)C(=O)N1CCC[C@H]1C(=O)NCC(=O)NCC(=O)O,"diketopiperazine formation, Arrhenius plot, ESI-MS",1-propanol,"70, 80, 90 °C, 0.5% acetic acid",,ΔG‡ at 298.15 K,22.9 ± 0.239 kcal/mol
CC(=O)N[C@@H](CC(N)=O)C(=O)NCC(=O)N[C@@H](CCCNC(=N)N)C(=O)N[C@@H](C)C(N)=O,1H NMR,sodium phosphate buffer 50 mM,"pH 7.4, 55 °C",,rate constant succinimide to α-Asp,2.2 h⁻¹
Cc1nc(C)c(C=[N+]([O-])C(C)(C)C)nc1C,"Western blot, measured: PGC-1α","primary midbrain neurons, rat","30 µM, with: 20 µM MPP+",,protein level increase,28.1%
CC(C)(O)c1ccc(N2Cc3c(ccnc3-c3ccc(F)cc3OCC(F)(F)F)C2=O)cc1,,"Gaucher disease mouse model, plasma","30 mg/kg, 2 months once daily",reference: vehicle,glucosylceramide level,21 ± 2%
O=C(Nc1ccc(C(F)(F)F)cc1Cl)c1cc(Cl)ccc1O,,mice relapsed VCaP xenograft,"oral, 75 mg/kg",,tumour growth,decreased
CSCC[C@H](NC(=O)[C@H](CC(C)C)NC(=O)CNC(=O)[C@H](Cc1ccccc1)NC(=O)[C@H](Cc1ccccc1)NC(=O)[C@H](CCC(N)=O)NC(=O)[C@H](CCC(N)=O)NC(=O)[C@@H]1CCCN1C(=O)[C@H](CCCCN)NC(=O)[C@@H]1CCCN1C(=O)[C@@H](N)CCCNC(=N)N)C(N)=O,"flow cytometry, measured: CD31+CD133+CD309+","diabetic mice, hindlimb ischemia, blood","intravenous, 2.5 nmol/kg, 3 days",reference: PBMCs,endothelial progenitor cells,0.06 ± 0.03%
Clc1ccc(NN=C(c2ccccc2)c2ccccn2)nc1,,"BALB/c mouse, orthotopic 4T1 mammary tumour",dose not given,reference: vehicle,increase in life span,18%
CC(C)c1cnc(-c2cc(Cl)ccc2F)cc1Nc1ccncc1C(=O)NC(CO)CO,"SMAD2/3 phosphorylation, flow cytometry","human patients, peripheral monocytes",at least 250 mg,,inhibition,> 60%
CC[C@H](C)[C@H](NC(=O)[C@H](CCCCN)NC(=O)[C@H](CC(N)=O)NC(=O)CNC(=O)[C@@H](NC(=O)[C@H](C)NC(=O)[C@H](CCCNC(=N)N)NC(=O)[C@H](CC(C)C)NC(=O)[C@H](CCCCN)NC(=O)[C@H](CCCCN)NC(=O)[C@H](CCCCN)NC(=O)[C@H](C)NC(=O)[C@H](CCCCN)NC(=O)[C@@H]1CSSC[C@H](NC(=O)[C@H](CCCNC(=N)N)NC(=O)CN)C(=O)N[C@@H](CC(N)=O)C(=O)N[C@@H](CC(C)C)C(=O)N[C@@H](CC(C)C)C(=O)N1)C(C)C)C(=O)N[C@@H](CCCCN)C(=O)N[C@@H](CCC(=O)O)C(=O)N[C@H](C(=O)N[C@@H](CCCCN)C(=O)N[C@@H](CC(N)=O)C(=O)N[C@H](C(=O)N[C@H](C(=O)N[C@@H](Cc1ccccc1)C(=O)N[C@@H](CC(N)=O)C(=O)N[C@@H](CCCNC(=N)N)C(=O)O)C(C)C)C(C)C)[C@@H](C)CC,measured: IL-6,"BALB/c mice, CLP-induced sepsis, serum and lung","intraperitoneal, 5 mg/kg, 12 h post-surgery",reference: vehicle,cytokine level,decreased
Cc1cc2c(cc1C1(c3ncc(C(=O)O)cn3)CC1)C(C)(C)CCC2(C)C,"RNA sequencing, measured: Cga mRNA","rat, brain","dose not given, 24 h, single dose",reference: vehicle,log2 fold change,4.22
CCCCCC(O)C=CC1OC2OC(C2F)C1CC=CCCCC(=O)O (stereo not drawn),"platelet aggregation, agonist, light transmission aggregometry",human platelet-rich plasma,,,Emax,77 ± 13.1%
NC(=O)C[C@H](N)C(=O)N1CCC[C@H]1C(=O)NCC(=O)NCC(=O)O,"diketopiperazine formation, Arrhenius plot, ESI-MS",1-propanol,"70, 80, 90 °C, 0.5% acetic acid",,ΔG‡ at 298.15 K,22.5 ± 0.478 kcal/mol
COc1cc(O)c(Cl)cc1/C=C/C(=O)c1ccc(C(F)(F)F)cc1,"immunofluorescence, measured: occludin","mouse LPS acute lung injury, lung",dose not given,,protein level,increased

# Repeated from above:
SMILES,assay,system,conditions,scale,quantity,result
CNc1oc(-c2cccc3ccccc23)nc1C#N,,"NOD mice, prediabetic","ip, 24 mg/kg daily, 2 weeks",,beta-cell mass,no effect
CCOC(=O)C1NC(c2ccc[n+](C)c2)C23c4c5c6c7c8c9c(c%10c%11c2c2c4c4c%12c5c5c6c6c8c8c%13c9c9c%10c%10c%11c%11c2c2c4c4c%12c%12c5c5c6c8c6c8c%13c9c9c%10c%10c%11c2c2c4c4c%12c5c6c5c8c9c%10c2c45)C713 (stereo not drawn),,"mouse, BCBL1 PEL xenograft","intraperitoneal, 20 mg/kg, day 21",,spleen weight,~0.15 g
C=C1C[C@@]23CC[C@H]4[C@@](C)(CCC[C@@]4(C)C(=O)O[C@@H]4O[C@H](CO)[C@@H](O)[C@H](O)[C@H]4O)[C@@H]2CC[C@]1(O[C@@H]1O[C@H](CO[C@H]2O[C@H](CO)[C@@H](O)[C@H](O)[C@H]2O)[C@@H](O)[C@H](O)[C@H]1O[C@@H]1O[C@H](CO)[C@@H](O)[C@H](O)[C@H]1O)C3,"immunoblot, measured: phospho-perilipin","C57BL/6N mouse, high-fat diet, gonadal white adipose tissue","drinking water, 0.2 g/L, 16 weeks",reference: vehicle,protein level,decreased
C[C@H](NC(=O)COC(=O)[C@H](C)NC(=O)CO)C(=O)O,,water,"pH 5, 50 °C",,depolymerization rate constant,0.238 h⁻¹
C=C(c1ncc(C(=O)O)cn1)c1cc2c(cc1C)C(C)(C)CCC2(C)C,"RNA sequencing, measured: Abca1 mRNA","rat, brain","dose not given, 24 h, single dose",reference: vehicle,log2 fold change,-2.06
